{"data": "Results from different studies", "note": "Lines come from different studies, so protocols differ. ± marks the error that the study gave. Where no end group is shown, it is not given here."}
{"Molecule": "CC1(C)S[C@@H]2[C@H](NC(=O)[C@H](N)c3ccc(O)cc3)C(=O)N2[C@H]1C(=O)O", "organism": "Moraxella", "system": "community-acquired pneumonia patients", "setting": "Fine score 70 or more", "measurement": "sensitive strains", "value": "0%"}
{"Molecule": "O=C(O)c1cc(O)c(O)c(O)c1", "organism": "Human immunodeficiency virus 1", "test": "viral replication, inhibitor", "system": "TZM-bl, NL43", "setting": "11.1 µM", "measurement": "inhibition", "value": "~50%"}
{"Molecule": "CTCATACTGA", "organism": "Salmonella enterica Typhimurium", "test": "RNA-seq, refers to: acpP mRNA", "system": "peptide, SL1344", "setting": "5 µM, 15 min", "scale": "reference: untreated", "measurement": "log2 fold change", "value": -2.1}
{"Molecule": "Cc1ncnc2c1c(CCC1CC1)cn2[C@@H]1O[C@H](CO)[C@@H](O)[C@H]1O", "organism": "Leishmania infantum", "test": "parasite growth, imaging", "system": "mouse Macrophage", "setting": "5 days, intracellular, amastigote", "measurement": "EC50", "value": "> 64 µM"}
{"Molecule": "CCOC(=O)/C=C/[C@H](C[C@@H]1CCNC1=O)NC(=O)[C@@H](CC(=O)[C@@H](NC(=O)c1cc(C)on1)C(C)C)Cc1ccc(F)cc1", "organism": "Enterovirus D68", "test": "virus yield reduction", "system": "RD, US/KY/14-18953", "setting": "72 h", "measurement": "EC90", "value": "0.004 ± 0.002 µM"}
{"Molecule": "CCCCc1cc2c(=O)c(I)c[nH]c2cc1OCCOc1ccccc1", "organism": "Plasmodium berghei", "system": "mouse", "setting": "oral, 50 mg/kg, day 6, single dose in PEG400", "scale": "reference: untreated", "measurement": "parasitemia inhibition", "value": "19.6%"}
{"Molecule": "CCN(CC)CCOc1ccc2c(=O)c3c(Cl)c(Cl)ccc3[nH]c2c1", "organism": "Plasmodium berghei", "system": "male C57BL/6 albino mouse", "setting": "oral, liver stage, luciferase sporozoites", "measurement": "fully protective curative dose", "value": "40 mg/kg"}
{"Molecule": "CCOC(=O)N1CCN(Cn2nc(C34CC5CC(CC(C5)C3)C4)n(-c3ccccc3)c2=S)CC1", "organism": "Micrococcus luteus", "test": "microbial growth, disc diffusion", "system": "IFO3232", "setting": "200 µg/disc, 24 h", "measurement": "inhibition zone", "value": "14 mm"}
{"Molecule": "Cc1ccc(Cn2cc(/C=N/N3C(=O)CSC3=S)c3cc([N+](=O)[O-])ccc32)cc1", "organism": "Trypanosoma congolense", "system": "trypomastigotes, IL3000", "measurement": "IC50", "value": "> 58 µM"}
{"Molecule": "CO/N=C1\\C[C@]2(C[C@@H]3C[C@@H](C/C=C(\\C)C[C@@H](C)/C=C/C=C4\\CO[C@@H]5[C@H](O)C(C)=C[C@@H](C(=O)O3)[C@]45O)O2)O[C@H](/C(C)=C/C(C)C)[C@H]1C", "organism": "Haemonchus contortus", "system": "multidrug resistant, sheep", "setting": "subcutaneous, 0.2 mg/kg, day 10 post-treatment, with: closantel 5 mg/kg", "measurement": "faecal egg count reduction", "value": "97%"}
{"Molecule": "TDADHVFLRF-NH2 (C-amide)", "organism": "Drosophila melanogaster", "test": "heart rate", "system": "adult heart", "setting": "40 nL injected, 1 µM, 10 min", "scale": "reference: DMS", "measurement": "inhibition", "value": "73%"}
{"Molecule": "GKVKVGVNGFGRIGRLVTRAAFNSGKVDIVA", "organism": "Candida albicans SC5314", "test": "epithelial damage", "system": "peptide, TR146", "setting": "5 µg/mL, 12 h", "scale": "reference: untreated infected", "measurement": "LDH release", "value": "decreased"}
{"Molecule": "CCCN(CCC)CCCOc1ccc2c(=O)c3c(F)cc(F)cc3[nH]c2c1", "organism": "Plasmodium berghei", "system": "male C57BL/6 albino mouse", "setting": "oral, liver stage, luciferase sporozoites", "measurement": "fully protective curative dose", "value": "10 mg/kg"}
{"Molecule": "O=C(Nc1ccc(F)c(-c2nc3cc(-c4ccccc4)cnc3[nH]2)c1)N1CCCC1", "organism": "Trypanosoma brucei brucei", "test": "parasite growth, Alamar Blue", "system": "BF427 bloodstream form", "measurement": "EC90", "value": "0.002 µM"}
{"Molecule": "gypsogenin", "organism": "Leishmania mexicana", "test": "parasite killing, alamarBlue", "system": "axenic amastigotes", "setting": "24 h, 33 °C", "measurement": "ED50", "value": "< 10.5 µM"}
{"Molecule": "O=S(=O)(c1ccc(-c2ccc3nccc(Nc4ccc(OCc5ccccc5)c(Cl)c4)c3c2)cc1)N1CCOCC1", "organism": "Leishmania major", "system": "promastigotes", "scale": "reference: matched quinazoline", "measurement": "potency increase", "value": "2.5 fold"}
{"Molecule": "GACATACTCT", "organism": "Salmonella enterica Typhimurium", "test": "RNA-seq, refers to: acpP mRNA", "system": "peptide, SL1344", "setting": "5 µM, 15 min", "scale": "reference: untreated", "measurement": "log2 fold change", "value": -1.6}
{"Molecule": "O=C1CSC(=S)N1/N=C/c1cn(Cc2ccc(F)cc2)c2ccc([N+](=O)[O-])cc12", "organism": "Leishmania major", "test": "parasite growth, resazurin", "system": "THP-1", "setting": "72 h, intracellular, amastigote", "measurement": "IC50", "value": "> 10 µM"}
{"Molecule": "CC[C@H]1OC(=O)[C@H](C)[C@@H](O[C@H]2C[C@@](C)(OC)[C@@H](O)[C@H](C)O2)[C@H](C)[C@@H](O[C@@H]2O[C@H](C)C[C@H](N(C)C)[C@H]2O)[C@](C)(O)C[C@@H](C)CN(C)[C@H](C)[C@@H](O)[C@]1(C)O", "organism": "Streptococcus pyogenes", "system": "hospitalized pneumonia patients, clinical isolates", "setting": "Fine score 70 or more", "measurement": "susceptible isolates", "value": "100%"}
{"Molecule": "C/C=C1\\NC(=O)[C@H]2CSSCC/C=C/[C@H](CC(=O)N[C@H](C(C)C)C(=O)N2)OC(=O)[C@H](C(C)C)NC1=O", "organism": "Lucilia cuprina", "test": "larval growth", "system": "larvae", "scale": "reference: diflubenzuron IC50 over cpd IC50", "measurement": "potency ratio", "value": "2 fold"}
{"Molecule": "TDVDHAFLRF-NH2 (C-amide)", "organism": "Drosophila melanogaster", "test": "gut contraction", "system": "adult gut", "setting": "1 µM, within 10 min", "scale": "reference: DMS effect", "measurement": "inhibition", "value": "100%"}
{"Molecule": "CCOC(=O)CSc1nnc(C23CC4CC(CC(C4)C2)C3)n1-c1ccccc1", "organism": "Micrococcus luteus", "test": "microbial growth, disc diffusion", "system": "IFO3232", "setting": "200 µg/disc, 24 h", "measurement": "inhibition zone", "value": "14 mm"}
{"Molecule": "CCN(CC)CCCC(C)Nc1ccnc2cc(Cl)ccc12 (stereo not shown)", "organism": "Plasmodium berghei", "system": "ANKA, mouse", "setting": "oral, 3 mg/kg/day for 4 days, day 4", "measurement": "parasitaemia suppression", "value": "87 ± 11%"}
{"Molecule": "TDVDHVALRF-NH2 (C-amide)", "organism": "Drosophila melanogaster", "test": "heart rate", "system": "adult heart", "setting": "40 nL injected, 1 µM, 10 min", "scale": "reference: DMS", "measurement": "inhibition", "value": "46%"}
{"Molecule": "COCCSc1nnc(C23CC4CC(CC(C4)C2)C3)n1-c1ccccc1", "organism": "Micrococcus luteus", "system": "IFO 3232", "setting": "200 µg/disc, 24 h, 37 °C", "measurement": "inhibition zone diameter", "value": "< 10 mm"}
{"Molecule": "CC[C@H]1OC(=O)[C@H](C)[C@@H](O[C@H]2C[C@@](C)(OC)[C@@H](O)[C@H](C)O2)[C@H](C)[C@@H](O[C@@H]2O[C@H](C)C[C@H](N(C)C)[C@H]2O)[C@](C)(O)C[C@@H](C)C(=O)[C@H](C)[C@@H](O)[C@]1(C)O", "organism": "Moraxella", "system": "community-acquired pneumonia patients", "setting": "Fine score 70 or more", "measurement": "sensitive strains", "value": "100%"}
{"Molecule": "CC1(C)SC2C(NC(=O)C(NC(=O)C3=C(O)C(Cc4ccc(F)cc4)NC3=O)c3ccccc3)C(=O)N2C1C(=O)O (stereo not shown)", "organism": "Escherichia coli", "test": "broth microdilution", "system": "BW25113, Mueller-Hinton broth", "setting": "with: 2,2'-bipyridyl 30 µg/mL", "measurement": "MIC", "value": "12.5 µg/mL"}
{"Molecule": "CCN(CC)CCCC(C)Nc1ccnc2cc(Cl)ccc12 (stereo not shown)", "organism": "Plasmodium falciparum", "test": "[3H]hypoxanthine incorporation", "system": "3D7", "setting": "10 µM, 48 h", "measurement": "growth inhibition", "value": "~100%"}
{"Molecule": "COc1cccc(/C=C/c2nc3ccc(N4CCCCC4)cc3c(=O)n2-c2cccc(C(C)(C)C)c2)n1", "organism": "Zika virus", "test": "viral replication, inhibitor", "system": "Vero", "setting": "3 µM", "measurement": "inhibition", "value": "> 99.9%"}
{"Molecule": "Nisin A", "organism": "Lactococcus lactis", "test": "deferred antagonism overlay", "system": "HP, GM17 agar", "setting": "concentration not given, produced by spotted strain", "measurement": "inhibition zone diameter", "value": "17 ± 0.27 mm"}
{"Molecule": "CC1(C)CC[C@]2(C(=O)O)CC[C@]3(C)C(=CC[C@@H]4[C@@]5(C)CC[C@H](O)[C@@](C)(CO)[C@@H]5CC[C@]43C)[C@@H]2C1", "organism": "Leishmania mexicana", "test": "cell proliferation", "system": "axenic amastigotes", "setting": "50 µM", "measurement": "inhibition", "value": "< 80%"}
{"Molecule": "CS(=O)(=O)c1ccc(-c2cnc(N)c(-c3ccc(C(F)(F)F)nc3)c2)cc1", "organism": "Plasmodium cynomolgi", "system": "Macaca mulatta", "setting": "20 mg/kg daily for 5 days, with: chloroquine", "measurement": "time to relapse", "value": "16.7 days"}
{"Molecule": "CCN(CC)CCOc1ccc2c(=O)c3ccc(Cl)cc3[nH]c2c1", "organism": "Plasmodium berghei", "system": "male C57BL/6 albino mouse", "setting": "oral, liver stage, luciferase sporozoites", "measurement": "fully protective curative dose", "value": "160 mg/kg"}
{"Molecule": "TDVDHVFLAF-NH2 (C-amide)", "organism": "Drosophila melanogaster", "test": "gut contraction", "system": "adult gut", "setting": "1 µM, within 10 min", "scale": "reference: DMS effect", "measurement": "inhibition", "value": "100%"}
{"Molecule": "Cc1cc(C(C#N)c2ccc(Cl)cc2)c(Cl)cc1NC(=O)c1cc(I)cc(I)c1O (stereo not shown)", "organism": "Haemonchus contortus", "system": "multidrug resistant, sheep", "setting": "subcutaneous, 5 mg/kg, day 2 post-treatment, with: moxidectin 0.2 mg/kg", "measurement": "faecal egg count reduction", "value": "85%"}
{"Molecule": "TDVDAVFLRF-NH2 (C-amide)", "organism": "Drosophila melanogaster", "test": "heart rate", "system": "wandering third instar larval heart", "setting": "40 nL injected, 1 µM, 10 min", "scale": "reference: DMS", "measurement": "inhibition", "value": "45%"}
{"Molecule": "CC(C)S(=O)(=O)n1c(N)nc2ccc(/C(=N/O)c3ccccc3)cc21", "organism": "Enterovirus D68", "test": "virus yield reduction", "system": "RD, US/KY/14-18953", "setting": "72 h", "measurement": "EC90", "value": "0.61 ± 0.08 µM"}
{"Molecule": "COc1cc(-c2oc3cc(O)cc(O)c3c(=O)c2O)ccc1O", "organism": "Human immunodeficiency virus 1", "test": "viral replication, inhibitor", "system": "TZM-bl, BAL", "setting": "11.1 µM", "measurement": "inhibition", "value": "> 50%"}
{"Molecule": "N=C(N)N", "organism": "Enterovirus D68", "test": "cytopathic effect, neutral red uptake", "system": "HeLa Ohio1, US/KY/14-18953", "measurement": "EC50", "value": "66 ± 22 µM"}
{"Molecule": "TDVAHVFLRF-NH2 (C-amide)", "organism": "Drosophila melanogaster", "test": "gut contraction", "system": "wandering third instar larval gut", "setting": "injection, 1 µM, within 10 min", "scale": "reference: DMS effect", "measurement": "inhibition", "value": "10%"}
{"note": "Some of these lines once more:"}
{"Molecule": "TDVAHVFLRF-NH2 (C-amide)", "organism": "Drosophila melanogaster", "test": "gut contraction", "system": "wandering third instar larval gut", "setting": "injection, 1 µM, within 10 min", "scale": "reference: DMS effect", "measurement": "inhibition", "value": "10%"}
{"Molecule": "CC[C@H]1OC(=O)[C@H](C)[C@@H](O[C@H]2C[C@@](C)(OC)[C@@H](O)[C@H](C)O2)[C@H](C)[C@@H](O[C@@H]2O[C@H](C)C[C@H](N(C)C)[C@H]2O)[C@](C)(O)C[C@@H](C)C(=O)[C@H](C)[C@@H](O)[C@]1(C)O", "organism": "Moraxella", "system": "community-acquired pneumonia patients", "setting": "Fine score 70 or more", "measurement": "sensitive strains", "value": "100%"}
{"Molecule": "CC1(C)SC2C(NC(=O)C(NC(=O)C3=C(O)C(Cc4ccc(F)cc4)NC3=O)c3ccccc3)C(=O)N2C1C(=O)O (stereo not shown)", "organism": "Escherichia coli", "test": "broth microdilution", "system": "BW25113, Mueller-Hinton broth", "setting": "with: 2,2'-bipyridyl 30 µg/mL", "measurement": "MIC", "value": "12.5 µg/mL"}
{"Molecule": "TDVDHAFLRF-NH2 (C-amide)", "organism": "Drosophila melanogaster", "test": "gut contraction", "system": "adult gut", "setting": "1 µM, within 10 min", "scale": "reference: DMS effect", "measurement": "inhibition", "value": "100%"}
{"Molecule": "CTCATACTGA", "organism": "Salmonella enterica Typhimurium", "test": "RNA-seq, refers to: acpP mRNA", "system": "peptide, SL1344", "setting": "5 µM, 15 min", "scale": "reference: untreated", "measurement": "log2 fold change", "value": -2.1}
